{"data": "Published values pooled from the literature", "note": "Protocols differ between the studies behind these lines."}
{"SMILES": "CC(C)C[C@@H](NC(=O)[C@H](C)NC(=O)CNC(=O)[C@@H](NC=O)C(C)C)C(=O)N[C@@H](C)C(=O)N[C@@H](C(=O)N[C@H](C(=O)N[C@@H](C(=O)N[C@@H](Cc1c[nH]c2ccccc12)C(=O)N[C@H](CC(C)C)C(=O)N[C@@H](Cc1cccc2[nH]ccc12)C(=O)N[C@H](CC(C)C)C(=O)N[C@@H](Cc1c[nH]c2ccccc12)C(=O)N[C@H](CC(C)C)C(=O)N[C@@H](Cc1c[nH]c2ccccc12)C(=O)NCCO)C(C)C)C(C)C)C(C)C", "organism": "Streptococcus pneumoniae", "assay": "broth microdilution", "test system": "NBRC 102642", "quantity": "MIC", "result": "0.0042 µM"}
{"SMILES": "C[C@]12C=CC(=O)C=C1CC[C@@H]1C2=CC[C@]2(C)[C@@H](C(=O)CN3CCN(c4cc(N5CCCC5)nc(N5CCCC5)n4)CC3)CC[C@@H]12", "organism": "Plasmodium falciparum", "test system": "7G8", "quantity": "IC50", "result": "1 µM"}
{"SMILES": "Cc1ccc2[nH]c3c(c2c1)CCCC3NCCc1ccc(O)cc1 (stereo not shown)", "organism": "Streptococcus pneumoniae", "assay": "broth microdilution", "test system": "TIGR4", "quantity": "MIC", "result": "2 to 4 µg/mL"}
{"SMILES": "CC(C)C[C@@H](NC(=O)[C@H](C)NC(=O)CNC(=O)[C@@H](NC=O)C(C)C)C(=O)N[C@@H](C)C(=O)N[C@@H](C(=O)N[C@H](C(=O)N[C@@H](C(=O)N[C@@H](Cc1c[nH]c2ccccc12)C(=O)N[C@H](CC(C)C)C(=O)N[C@@H](Cc1ccc2[nH]ccc2c1)C(=O)N[C@H](CC(C)C)C(=O)N[C@@H](Cc1c[nH]c2ccccc12)C(=O)N[C@@H](C(=O)N[C@@H](Cc1c[nH]c2ccccc12)C(=O)NCCO)C(C)C)[C@H](C)O)C(C)C)C(C)C", "organism": "Streptococcus pneumoniae", "assay": "broth microdilution", "test system": "NBRC 102642", "quantity": "MIC", "result": "0.017 µM"}
{"SMILES": "c1ccc2c(c1)nc(CNCC13CC4CC(CC(C4)C1)C3)n2CCC1CCOCC1", "organism": "Streptococcus pneumoniae", "test system": "ATCC 49619", "quantity": "MIC", "result": "8 µg/mL"}
{"SMILES": "Oc1c(Br)cc(Br)c2nc3ccccc3nc12", "organism": "Streptococcus pneumoniae", "assay": "broth microdilution", "test system": "6303", "setting": "16 h, 37 °C", "quantity": "MIC", "result": "1.17 µM"}
{"SMILES": "CC[C@H]1OC(=O)[C@H](C)[C@@H](O[C@H]2C[C@@](C)(OC)[C@@H](O)[C@H](C)O2)[C@H](C)[C@@H](O[C@@H]2O[C@H](C)C[C@H](N(C)C)[C@H]2O)[C@](C)(O)C[C@@H](C)C(=O)[C@H](C)[C@@H](O)[C@]1(C)O", "organism": "Streptococcus pneumoniae", "assay": "broth microdilution", "test system": "ATCC 49619, penicillin intermediate", "setting": "overnight, 37 °C", "quantity": "MIC", "result": "< 1 µg/mL"}
{"SMILES": "CCCCCCCC/C=C\\CCCCCCCC(=O)C(F)(F)P(=O)(O)O", "organism": "Streptococcus pneumoniae", "quantity": "MIC", "result": "> 200 µg/mL"}
{"SMILES": "c1ccc(CCNC2CCCc3c2oc2ccc(-c4ccccc4)cc32)cc1 (stereo not shown)", "organism": "Streptococcus pneumoniae", "test system": "T4", "setting": "C+Y medium", "quantity": "MIC", "result": "50 µM"}
{"SMILES": "O=C(CCCCCCCCCCOc1ccccc1)CP(=O)(O)O", "organism": "Streptococcus pneumoniae", "quantity": "MIC", "result": "50 µg/mL"}
{"SMILES": "Cc1ccc2[nH]c3c(c2c1)CCCC3NCCc1ccc(Br)cc1 (stereo not shown)", "organism": "Streptococcus pneumoniae", "assay": "broth microdilution", "test system": "serotype 19A 700678, supplemented C+Y medium", "quantity": "MIC", "result": "4.8 µg/mL"}
{"SMILES": "NCC(O)C1CCCCCCC1 (stereo not shown)", "organism": "Plasmodium falciparum", "test system": "7G8", "quantity": "IC50", "result": "10 µM"}
{"SMILES": "CCCCCCCCCCCCCCCC(=O)CP(=O)(O)O", "organism": "Streptococcus pneumoniae", "quantity": "MIC", "result": "200 µg/mL"}
{"SMILES": "CCCCCCCCCC(=O)N[C@@H](Cc1c[nH]c2ccccc12)C(=O)N[C@H](CC(N)=O)C(=O)N[C@@H](CC(=O)O)C(=O)N[C@@H]1C(=O)NCC(=O)N[C@@H](CCCN)C(=O)N[C@@H](CC(=O)O)C(=O)N[C@H](C)C(=O)N[C@@H](CC(=O)O)C(=O)NCC(=O)N[C@H](CO)C(=O)N[C@@H]([C@H](C)CC(=O)O)C(=O)N[C@@H](CC(=O)c2ccccc2N)C(=O)O[C@@H]1C", "organism": "Streptococcus pneumoniae", "assay": "broth microdilution", "test system": "ATCC 49619, penicillin intermediate", "setting": "overnight, 37 °C", "quantity": "MIC", "result": "32 µg/mL"}
{"SMILES": "CCCCCCCC/C=C\\CCCCCCCCNC(=O)CP(=O)(O)O", "organism": "Streptococcus pneumoniae", "quantity": "MIC", "result": "> 200 µg/mL"}
{"SMILES": "CC(C)C[C@@H](NC(=O)[C@H](C)NC(=O)CNC(=O)[C@@H](NC=O)C(C)C)C(=O)N[C@@H](C)C(=O)N[C@@H](C(=O)N[C@H](C(=O)N[C@@H](C(=O)N[C@@H](Cc1c[nH]c2ccccc12)C(=O)N[C@H](CC(C)C)C(=O)N[C@@H](Cc1ccc2[nH]ccc2c1)C(=O)N[C@H](CC(C)C)C(=O)N[C@@H](Cc1c[nH]c2ccccc12)C(=O)N[C@H](CC(C)C)C(=O)N[C@@H](Cc1c[nH]c2ccccc12)C(=O)NCCO)C(C)C)C(C)C)C(C)C", "organism": "Streptococcus pneumoniae", "assay": "broth microdilution", "test system": "NBRC 102642", "quantity": "MIC", "result": "0.0042 µM"}
{"note": "Excerpt of the above:"}
{"SMILES": "C[C@]12C=CC(=O)C=C1CC[C@@H]1C2=CC[C@]2(C)[C@@H](C(=O)CN3CCN(c4cc(N5CCCC5)nc(N5CCCC5)n4)CC3)CC[C@@H]12", "organism": "Plasmodium falciparum", "test system": "7G8", "quantity": "IC50", "result": "1 µM"}
{"SMILES": "Cc1ccc2[nH]c3c(c2c1)CCCC3NCCc1ccc(O)cc1 (stereo not shown)", "organism": "Streptococcus pneumoniae", "assay": "broth microdilution", "test system": "TIGR4", "quantity": "MIC", "result": "2 to 4 µg/mL"}
